# Assay results pooled from the literature.
# Protocols differ between the studies behind these lines. ± gives the spread as reported.
# Sequence of UniProt P21802 (whole entry, unmodified, looked up): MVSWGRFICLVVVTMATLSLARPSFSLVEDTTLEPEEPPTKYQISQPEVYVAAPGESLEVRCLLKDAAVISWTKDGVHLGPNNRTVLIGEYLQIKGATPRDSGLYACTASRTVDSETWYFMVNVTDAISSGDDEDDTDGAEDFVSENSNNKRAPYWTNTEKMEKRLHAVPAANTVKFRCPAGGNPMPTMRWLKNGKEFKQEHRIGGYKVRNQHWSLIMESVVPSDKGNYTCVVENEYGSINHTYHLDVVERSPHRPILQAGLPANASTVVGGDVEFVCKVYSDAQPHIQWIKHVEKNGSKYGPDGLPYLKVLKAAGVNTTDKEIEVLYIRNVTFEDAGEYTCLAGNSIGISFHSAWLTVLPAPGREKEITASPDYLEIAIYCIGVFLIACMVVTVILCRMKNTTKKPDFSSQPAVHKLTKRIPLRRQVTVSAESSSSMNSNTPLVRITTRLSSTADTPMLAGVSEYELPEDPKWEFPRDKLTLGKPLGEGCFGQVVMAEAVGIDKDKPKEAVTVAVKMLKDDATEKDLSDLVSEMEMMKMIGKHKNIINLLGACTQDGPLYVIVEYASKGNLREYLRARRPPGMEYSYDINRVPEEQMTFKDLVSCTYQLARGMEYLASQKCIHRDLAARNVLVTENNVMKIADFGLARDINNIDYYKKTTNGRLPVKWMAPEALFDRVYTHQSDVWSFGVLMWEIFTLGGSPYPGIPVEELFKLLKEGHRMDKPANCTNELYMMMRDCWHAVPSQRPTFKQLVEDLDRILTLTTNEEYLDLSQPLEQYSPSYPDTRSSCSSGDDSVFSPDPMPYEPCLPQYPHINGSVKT
# Sequence of UniProt Q96PF2 (whole entry, looked up): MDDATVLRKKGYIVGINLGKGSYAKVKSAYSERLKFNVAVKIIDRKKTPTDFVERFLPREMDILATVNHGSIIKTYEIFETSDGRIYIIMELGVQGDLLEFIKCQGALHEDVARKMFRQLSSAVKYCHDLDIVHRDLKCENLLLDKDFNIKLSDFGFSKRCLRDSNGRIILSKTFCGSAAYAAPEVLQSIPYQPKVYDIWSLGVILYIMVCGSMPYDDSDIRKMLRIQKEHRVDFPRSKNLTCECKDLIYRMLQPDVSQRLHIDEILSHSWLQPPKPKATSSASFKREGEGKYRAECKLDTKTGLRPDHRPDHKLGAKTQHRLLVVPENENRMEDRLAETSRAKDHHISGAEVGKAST
# Sequence of UniProt Q8TDX7 (whole entry, looked up): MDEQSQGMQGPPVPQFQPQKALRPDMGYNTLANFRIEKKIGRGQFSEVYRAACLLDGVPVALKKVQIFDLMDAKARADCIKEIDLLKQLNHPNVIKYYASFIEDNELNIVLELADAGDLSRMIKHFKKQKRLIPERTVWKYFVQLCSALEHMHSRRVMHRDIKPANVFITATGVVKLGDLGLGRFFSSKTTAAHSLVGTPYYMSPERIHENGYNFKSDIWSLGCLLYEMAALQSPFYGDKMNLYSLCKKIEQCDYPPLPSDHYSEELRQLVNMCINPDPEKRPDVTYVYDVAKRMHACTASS
# Sequence of UniProt P45984 (whole entry, looked up): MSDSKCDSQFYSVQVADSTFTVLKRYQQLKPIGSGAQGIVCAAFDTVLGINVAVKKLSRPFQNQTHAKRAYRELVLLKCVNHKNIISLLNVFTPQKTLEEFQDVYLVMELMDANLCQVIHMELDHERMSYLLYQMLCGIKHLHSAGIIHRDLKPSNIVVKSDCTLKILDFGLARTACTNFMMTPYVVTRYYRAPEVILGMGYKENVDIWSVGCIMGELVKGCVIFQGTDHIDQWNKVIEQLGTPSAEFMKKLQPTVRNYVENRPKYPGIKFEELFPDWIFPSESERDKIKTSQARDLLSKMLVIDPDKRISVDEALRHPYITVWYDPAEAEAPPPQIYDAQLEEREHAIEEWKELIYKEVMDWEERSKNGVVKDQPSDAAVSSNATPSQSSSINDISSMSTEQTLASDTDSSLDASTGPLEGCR
# Sequence of UniProt Q9Y572 (whole entry, looked up): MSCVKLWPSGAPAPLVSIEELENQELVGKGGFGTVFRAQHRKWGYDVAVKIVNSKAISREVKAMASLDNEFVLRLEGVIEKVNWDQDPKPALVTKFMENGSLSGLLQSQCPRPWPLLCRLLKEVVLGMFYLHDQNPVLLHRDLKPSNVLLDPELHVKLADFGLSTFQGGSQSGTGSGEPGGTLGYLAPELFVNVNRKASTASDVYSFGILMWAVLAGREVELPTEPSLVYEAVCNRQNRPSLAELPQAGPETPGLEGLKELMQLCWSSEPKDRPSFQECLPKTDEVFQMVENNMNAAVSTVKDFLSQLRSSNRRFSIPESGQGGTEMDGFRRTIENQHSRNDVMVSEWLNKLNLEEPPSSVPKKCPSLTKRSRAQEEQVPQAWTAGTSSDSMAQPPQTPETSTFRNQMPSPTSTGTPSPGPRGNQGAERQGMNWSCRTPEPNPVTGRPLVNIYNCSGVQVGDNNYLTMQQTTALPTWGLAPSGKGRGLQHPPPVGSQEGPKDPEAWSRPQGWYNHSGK
# Sequence of UniProt Q15303 (whole entry, looked up): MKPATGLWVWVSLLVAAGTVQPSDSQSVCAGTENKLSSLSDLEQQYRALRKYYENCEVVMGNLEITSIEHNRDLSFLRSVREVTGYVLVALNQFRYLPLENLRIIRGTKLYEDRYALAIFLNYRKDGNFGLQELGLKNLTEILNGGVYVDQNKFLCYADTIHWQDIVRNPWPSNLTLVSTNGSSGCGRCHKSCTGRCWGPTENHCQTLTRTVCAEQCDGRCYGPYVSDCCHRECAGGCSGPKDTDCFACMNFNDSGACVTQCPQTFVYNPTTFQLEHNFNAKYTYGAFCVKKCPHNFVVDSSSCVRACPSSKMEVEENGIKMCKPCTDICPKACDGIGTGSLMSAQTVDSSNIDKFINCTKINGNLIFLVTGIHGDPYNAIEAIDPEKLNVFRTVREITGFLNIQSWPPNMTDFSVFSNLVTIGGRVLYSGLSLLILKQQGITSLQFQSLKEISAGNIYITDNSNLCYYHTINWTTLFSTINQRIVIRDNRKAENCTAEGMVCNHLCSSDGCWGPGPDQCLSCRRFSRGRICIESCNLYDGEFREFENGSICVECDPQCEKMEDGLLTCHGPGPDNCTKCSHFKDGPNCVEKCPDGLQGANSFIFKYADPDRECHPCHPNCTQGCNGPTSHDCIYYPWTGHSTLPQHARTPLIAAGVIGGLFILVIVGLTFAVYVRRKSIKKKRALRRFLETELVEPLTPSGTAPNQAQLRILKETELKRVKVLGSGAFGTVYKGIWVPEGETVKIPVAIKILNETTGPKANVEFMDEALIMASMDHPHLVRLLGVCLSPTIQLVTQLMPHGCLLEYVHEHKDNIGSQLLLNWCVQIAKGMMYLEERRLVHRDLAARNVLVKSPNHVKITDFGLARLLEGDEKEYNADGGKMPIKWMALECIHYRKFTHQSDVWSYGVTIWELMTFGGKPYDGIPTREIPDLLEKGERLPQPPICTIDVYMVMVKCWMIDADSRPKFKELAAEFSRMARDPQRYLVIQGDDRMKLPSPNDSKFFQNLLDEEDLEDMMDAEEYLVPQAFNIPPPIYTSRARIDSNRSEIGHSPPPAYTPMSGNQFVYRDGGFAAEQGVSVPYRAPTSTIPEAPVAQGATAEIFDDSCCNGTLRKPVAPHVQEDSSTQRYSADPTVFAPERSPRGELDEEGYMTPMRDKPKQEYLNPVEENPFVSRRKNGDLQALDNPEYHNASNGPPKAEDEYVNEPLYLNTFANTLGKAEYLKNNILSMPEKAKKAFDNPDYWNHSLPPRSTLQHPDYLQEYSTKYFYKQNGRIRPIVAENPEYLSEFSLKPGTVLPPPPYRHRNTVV
SMILES,target,test,setting,how to read,remaining activity
C=CC(=O)N1CCC[C@@H](n2nc(-c3ccc(Oc4ccccc4)cc3)c3c(N)ncnc32)C1,"Fibroblast growth factor receptor 2 (FGFR2, Homo sapiens, UniProt P21802)","kinase activity, inhibitor, HotSpot radiometric","100 nM, with: ATP 10 µM",,82.6 ± 0.7%
COc1cc(F)ccc1-c1ncnc(Nc2cccc(C[S@](C)(=N)=O)c2)n1,"Serine/threonine-protein kinase Nek7 (NEK7, Homo sapiens, UniProt Q8TDX7)",kinase activity,"10 µM, with: 10 µM ATP",,100%
COc1cc(Nc2ncc3c(n2)-c2ccc(Cl)cc2C(c2c(F)cccc2OC)=NC3)ccc1C(=O)O,GRK7,kinase activity,1 µM,,98%
CNC(=O)c1cc(Oc2ccc(NC(=O)Nc3ccc(Cl)c(C(F)(F)F)c3)cc2)ccn1,"Cyclin-dependent kinase 2, with cyclin A2 (CDK2, Homo sapiens, UniProt P24941)","kinase activity, inhibitor, ADP-Glo kinase",1 nM,,80.4%
C=CC(=O)N1CCC[C@@H](n2nc(-c3ccc(Oc4ccccc4)cc3)c3c(N)ncnc32)C1,"Receptor tyrosine-protein kinase erbB-4 (ERBB4, Homo sapiens, UniProt Q15303)",,1 µM,,44.1%
O=C(O)c1ccc(Nc2ncc3c(n2)-c2ccc(Cl)cc2C(c2c(F)cccc2F)=NC3)cc1,human STK33(h),kinase activity,1 µM,,96%
COc1ccc(F)cc1C(=O)NCc1ccc(-c2nn([C@@H](C)C(F)(F)F)c(N)c2C(N)=O)cc1,"Receptor-interacting serine/threonine-protein kinase 3 (RIPK3, Homo sapiens, UniProt Q9Y572)","kinase activity, inhibitor, HotSpot radiometric","100 nM, with: ATP 10 µM",,122.6 ± 1.1%
Cc1cc(NC(=O)c2cccc(NC(=O)/C=C/CN(C)C)c2)ccc1Nc1nccc(-c2cccnc2)n1,"Mitogen-activated protein kinase 9 (MAPK9, Homo sapiens, UniProt P45984)","enzyme activity, inhibitor","2.788e-05 µM, unit not given",relative to: vehicle,0.954
Cc1cc(Nc2cc(N3CCN(C)CC3)nc(Sc3ccc(NC(=O)C4CC4)cc3)n2)[nH]n1,"Testis-specific serine/threonine-protein kinase 2 (TSSK2, Homo sapiens, UniProt Q96PF2)","kinase activity, KinaseProfiler","0.03 µM, species human",relative to: control,98%
COc1cc(-c2cncc3c2CN(C)Cc2cc(N4CCNCC4)ccc2-3)cc(OC)c1OC,"Fibroblast growth factor receptor 2 (FGFR2, Homo sapiens, UniProt P21802, N549H)",kinase activity,"1 µM, with: ATP 10 µM",relative to: DMSO control,95%
